Published values collected from several papers.
Lines come from different studies, so protocols differ.
Fibroblast growth factor 14: Fibroblast growth factor 14 (Homo sapiens, UniProt Q92915)
VRK1: Serine/threonine-protein kinase VRK1 (VRK1, Homo sapiens, UniProt Q99986)
BRD9: Bromodomain-containing protein 9 (BRD9, Homo sapiens, UniProt Q9H8M2)
D14: D14 (Arabidopsis thaliana, UniProt Q9SQR3)

The ΔTm of Cc1cccc(NC(=O)Cn2cc(CO)c3ccccc32)c1 is reported as 2.3 °C (Fibroblast growth factor 14; thermal stability; 25 µM).
Cn1c2c(c3ccc(Cl)c(Cl)c31)C(C#N)C1(CCOCC1)NC2=O (stereo not drawn) gave a ΔTm of 0 °C (VRK1; thermal stability, DSF; 10 µM).
For CCN(CC)Cc1c(OC)cc(-c2cc(C(C)=O)n3ccccc23)cc1OC, the ΔTm was 15 °C (BRD9; thermal stability, DSF; 200 µM).
For Cc1cc2c(cc1N1C(=O)c3cccc4c(Cl)ccc(c34)C1=O)n(C)c(=O)n2C, the ΔTm was 0.2 °C (ATAD2B (Homo sapiens, UniProt Q9ULI0); thermal stability, DSF; 10 µM).
For CC1=C(/C=C/C(C)=C/C=O)C(C)(C)C[C@H](O)C1, the ΔTm was -8.72 °C (D14; thermal stability, DSF; 100 µM).
For CC(C)[C@@H]1NC(=O)[C@@H]2CCCN2C(=O)[C@H](Cc2ccccc2)NC(=O)CSC[C@@H](C(=O)N[C@@H](Cc2ccc(O)cc2)C(N)=O)NC(=O)[C@H](Cc2c[nH]c3ccccc23)NC(=O)[C@H](CCCCN)NC(=O)[C@H](Cc2ccccc2)N(C)C(=O)[C@H](Cc2ccccc2)NC1=O, the ΔTm was 5.51 °C (STING1 (Homo sapiens, UniProt Q86WV6, H232R); thermal stability, DSF; 100 µM).
The ΔTm of COc1cc(-c2cc(C(C)=O)n3ccccc23)cc(OC)c1Cn1ccnc1 is reported as 14 °C (BRD9; thermal stability, DSF; 200 µM).
O=c1cc(-c2ccc([N+](=O)[O-])cc2)[nH]c2c(-c3ccc(Cl)cc3)c(Cc3ccccc3)nn12 gave a ΔTm of 2.1 °C (Fibroblast growth factor 14; thermal stability; 25 µM).
With COc1ccc(OC)c(-c2cc(C(C)=O)n3ccccc23)n1 the ΔTm was 3.5 °C (BRD9; thermal stability, DSF; 200 µM).
For CNc1ncc2c(/C=C/C(=O)N3CCC(OC)CC3)nn(Cc3cccc(C(F)(F)F)c3)c2n1, the remaining activity was 88% (MAPK1 (Homo sapiens, UniProt P28482); enzyme activity, inhibitor, radiometric; 1 µM).
Cn1c2c(c3ccc(Cl)c(Cl)c31)C(C#N)C1(CCNCC1)NC2=O (racemic) gave a ΔTm of 0.3 °C (VRK1; thermal stability, DSF; 10 µM).
COC(=O)c1c(OC)cc(-c2cc(C(C)=O)n3ccccc23)cc1OC has a ΔTm of 7.5 °C (BRD9; thermal stability, DSF; 200 µM).
For CC1=CC(O/C=C2/C(=O)OC3c4ccccc4CC23)OC1=O (racemic), the ΔTm was -7.91 °C (D14; thermal stability, DSF; 100 µM).
CC(=O)Nc1ccc(S(=O)(=O)N2CCN(CC(O)COc3ccc4ccccc4c3)CC2)cc1 (stereo not drawn) gave a ΔTm of 3.1 °C (Fibroblast growth factor 14; thermal stability; 25 µM).
For COc1cc(-c2cncc3c2CN(C)Cc2cc(N4CCNCC4)ccc2-3)cc(OC)c1OC, the remaining activity was 108% (STK16 (Homo sapiens, UniProt O75716); enzyme activity, inhibitor; 1 µM).

Repeated from above:
CC(=O)Nc1ccc(S(=O)(=O)N2CCN(CC(O)COc3ccc4ccccc4c3)CC2)cc1 (stereo not drawn) gave a ΔTm of 3.1 °C (Fibroblast growth factor 14; thermal stability; 25 µM).
For COc1cc(-c2cncc3c2CN(C)Cc2cc(N4CCNCC4)ccc2-3)cc(OC)c1OC, the remaining activity was 108% (STK16 (Homo sapiens, UniProt O75716); enzyme activity, inhibitor; 1 µM).
